Measured values from different studies.
Each numbered part is a random draw from the data of one study; scales do not carry over between parts. Substitutions count along the parent as printed.

Series 1 — read-out: binding; method: phage display NGS; form: peptide; reference: input library
Target: UDP-N-acetylglucosamine--peptide N-acetylglucosaminyltransferase 110 kDa subunit (OGT, Homo sapiens, UniProt O15294)
Target sequence (O15294 1-1046): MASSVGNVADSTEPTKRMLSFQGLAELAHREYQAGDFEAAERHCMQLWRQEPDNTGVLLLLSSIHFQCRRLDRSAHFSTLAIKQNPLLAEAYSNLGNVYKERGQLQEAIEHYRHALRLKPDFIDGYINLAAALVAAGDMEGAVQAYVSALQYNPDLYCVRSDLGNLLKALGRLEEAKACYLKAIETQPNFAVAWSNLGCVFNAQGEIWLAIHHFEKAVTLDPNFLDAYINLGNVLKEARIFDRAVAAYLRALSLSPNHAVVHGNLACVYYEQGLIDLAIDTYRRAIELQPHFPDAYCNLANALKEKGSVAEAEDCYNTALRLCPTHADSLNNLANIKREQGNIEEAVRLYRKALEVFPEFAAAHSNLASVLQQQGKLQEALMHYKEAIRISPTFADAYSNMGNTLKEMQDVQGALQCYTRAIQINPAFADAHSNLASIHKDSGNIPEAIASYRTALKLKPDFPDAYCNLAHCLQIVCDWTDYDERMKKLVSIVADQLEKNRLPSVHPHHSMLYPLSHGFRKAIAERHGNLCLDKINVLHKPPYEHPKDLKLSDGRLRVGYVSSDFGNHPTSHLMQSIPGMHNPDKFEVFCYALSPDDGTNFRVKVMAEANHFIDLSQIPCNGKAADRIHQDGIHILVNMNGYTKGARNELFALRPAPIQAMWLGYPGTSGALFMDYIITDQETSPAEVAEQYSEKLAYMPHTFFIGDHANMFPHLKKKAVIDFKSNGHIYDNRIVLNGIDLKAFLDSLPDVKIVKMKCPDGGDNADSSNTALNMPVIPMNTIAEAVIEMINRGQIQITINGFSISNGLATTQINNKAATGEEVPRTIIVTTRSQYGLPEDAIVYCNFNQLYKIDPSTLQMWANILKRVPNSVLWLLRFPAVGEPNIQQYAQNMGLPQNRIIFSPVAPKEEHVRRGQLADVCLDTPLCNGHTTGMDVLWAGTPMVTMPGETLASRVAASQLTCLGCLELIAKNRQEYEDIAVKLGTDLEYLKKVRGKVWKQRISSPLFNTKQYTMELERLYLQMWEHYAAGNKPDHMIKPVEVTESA
Sequence	minimum log2 enrichment ratio
AGGQYPPKYQIIFPT	5.83
VERWFPPKYQMPIQG	3.89
WAGWRGTDALHSHWD	1.8
HQLDQRRGHVHGHME	2.31
DFVMPEYIIEYQIRS	2.38
GHDSYMPFYQISLFR	3.07
HFVHRQDNGFMKHT	2.31
HIAHQYPHQAKPSGH	2.09

Series 2 — target: CCNB3, cyclin fold, Cln2 fusion (human); method: yeast growth competition, sequencing; sample: yeast; notes: strong parent motif; reference: not given; direction: higher = stronger binding; parent: viral docking peptide; KGVKRKLFAEDSS
Change	normalised enrichment score
KGVKRKNFAEDSS [L7N]	0.0766
KGVKRKLFAESSS [D11S]	2.52
KGVKRKLFPEDSS [A9P]	2.74
KGVKRKLGAEDSS [F8G]	-0.00601
KGVWRKLFAEDSS [K4W]	1.1
KGVIRKLFAEDSS [K4I]	1.83
KGVKRKLFDEDSS [A9D]	3.09
KGVKRKLFEEDSS [A9E]	2.95

Series 3 — target: inorganic phosphate, free oxyanion; method: microfluidic competitive inhibition; sample: in vitro, cell-free expressed; tested at: not given; direction: lower = stronger binding
Notes: derived from inhibition constants, unchanged parent 615000 nM
Parent: PafA, mature enzyme, eGFP fusion (Elizabethkingia meningoseptica, UniProt Q9KJX5); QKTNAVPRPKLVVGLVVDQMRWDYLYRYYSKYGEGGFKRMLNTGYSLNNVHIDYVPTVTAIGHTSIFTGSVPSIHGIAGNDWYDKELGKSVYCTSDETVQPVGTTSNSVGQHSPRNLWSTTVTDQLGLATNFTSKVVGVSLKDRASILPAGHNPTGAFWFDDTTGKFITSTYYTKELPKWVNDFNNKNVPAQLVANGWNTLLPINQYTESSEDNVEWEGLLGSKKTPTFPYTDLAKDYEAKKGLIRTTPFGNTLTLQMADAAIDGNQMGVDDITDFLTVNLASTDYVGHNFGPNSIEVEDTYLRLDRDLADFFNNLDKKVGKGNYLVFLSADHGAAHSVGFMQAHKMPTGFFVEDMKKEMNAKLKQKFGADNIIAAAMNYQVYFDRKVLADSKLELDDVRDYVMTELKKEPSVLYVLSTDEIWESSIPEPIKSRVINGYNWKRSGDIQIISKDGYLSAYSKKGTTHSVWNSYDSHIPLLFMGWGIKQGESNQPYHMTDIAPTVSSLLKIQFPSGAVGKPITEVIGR
Change	phosphate dissociation constant [µM]
T228G	373
L456G	323
A344V	680
E297V	153
K409G	566
V137G	568
T123V	627
K85G	645

Single results of other studies
Compound	target	test	conditions	endpoint	value
O=C1NC(=O)N(c2ccc(F)cc2)C(=O)C1=CNc1ccc(F)cc1	His6 tag	AlphaScreen counter screen	concentration not given	inhibition	3.4%

Repeated from above (series 2):
Change	normalised enrichment score
KGVKRKLGAEDSS [F8G]	-0.00601
KGVKRKLFPEDSS [A9P]	2.74
KGVKRKNFAEDSS [L7N]	0.0766
KGVIRKLFAEDSS [K4I]	1.83
